Experimental data of several laboratories.
Each line is one published result; not all experiments were run side by side. Several values in a cell are separate wells, animals, samples, runs or records. ± gives the spread as reported.

Cc1nc(-c2cnc(NC(C)C)n(C)c2=O)ccc1Oc1ccnc(-c2cnn(C)c2)c1  apparent volume of distribution (Beagle dog, male, plasma; oral, 10 mg/kg, crossover study, mean): 11.2 L/kg
COc1cc(C=CC(=O)O)ccc1O[C@@H]1O[C@H](C(=O)O)[C@@H](O)[C@H](O)[C@H]1O  plasma concentration (human plasma; mean): 11100 nM
C[C@H]1CN(C(=O)CC#N)[C@]12CCN(c1ncnc3[nH]ccc13)C2  t1/2 (healthy adults, plasma; oral, 1.5 mg single dose, median): 1.8 h
COc1ccc2c(=O)n(C)c(-c3ccccc3)nc2c1  tissue concentration (Sprague-Dawley rat, heart; oral, 30 mg/kg, 4 h): not detected
Cc1ccc(O)c(O)c1  plasma concentration (human plasma; median): 4620 nM
O=C1CCc2ccc(OCCCCN3CCN(c4cccc(Cl)c4Cl)CC3)cc2N1  adverse event incidence (item: Hypotension; genotyped patients, CYP2D6 normal metabolizers; dose not given, long-acting oral or depot): 4.2%
CCc1nc(C(N)=O)c(Nc2ccc(N3CCC(N4CCN(C)CC4)CC3)c(OC)c2)nc1NC1CCOCC1  AUCtau (Japanese patients, plasma; oral, 120 mg, cycle 1 day 28, multiple doses, mean): 13500 ng·h/mL
CC(C)c1nc(CN(C)C(=O)N[C@@H](CCN2CCOCC2)C(=O)N[C@H](CC[C@H](Cc2ccccc2)NC(=O)OCc2cncs2)Cc2ccccc2)cs1  drug-related TEAE incidence (item: Hallucinations; human; oral, 150 mg): 0%
COc1cccc(OC)c1-c1cc(C(=O)NC2(C(=O)O)C3CC4CC(C3)CC2C4)nn1-c1ccc(C(=O)N(C)CCCN(C)CCCN(C)C(=O)CN2CCN(CC(=O)[O-])CCN(CC(=O)[O-])CCN(CC(=O)[O-])CC2)cc1C(C)C.[177Lu+3] (centres unmarked)  tissue uptake (mouse, HT-29 xenograft, HT-29 tumour; 72 h post injection): 6 %ID/g
COc1ccc2nc([S+]([O-])Cc3ncc(CO)c(OC)c3C)[nH]c2c1 (centres unmarked)  R/S enantiomer ratio fold change (human, dried plasma spots; 2 h, with: rifampicin pretreatment; relative to: induced over baseline): 0.01
C=CC(=O)Nc1cc(Nc2nccc(-c3cn(C)c4ccccc34)n2)c(OC)cc1N(C)CCN(C)C  recovery (storage stability; human dried blood spots; 24 h, on ice, medium QC level): 77.7%
N#Cc1ccc2c(c1)[C@H]1CCCN(C(=O)c3ccc4[nH]cnc4c3)[C@H]1C2  androstenedione (human females; 360 mg, end of trial): 3.5 nmol/L
CC1CCNc2c(C(=O)NC/C=C/S(C)(=O)=O)cccc21 (centres unmarked)  serum ALT (uninfected mouse, serum; 300 mg/kg): 30 U/L and 40 U/L
O=C(CCCCCCC(=O)Nc1ccc(CC[18F])cc1)NO  tissue uptake (athymic nu/nu male mice, LNCaP xenograft, small intestine; intravenous, 2 h): 12.8 ± 3.9 %ID/g
COc1cc2c3c(n(CCCN4CCOCC4)c(=O)c2cc1OC)-c1cc2c(cc1C3=O)OCO2  clearance (Fischer 344 rats, female; intravenous bolus, 24 mg/m^2): 29.3 L/h/m²
CO[C@@H]1[C@@H](OC(N)=O)[C@@H](O)[C@H](Oc2ccc3c(O)c(NC(=O)c4ccc(O)c(CC=C(C)C)c4)c(=O)oc3c2C)OC1(C)C  amount permeated (starch gel membrane permeability; Gram-negative envelope surrogate; 200 µM, 60 min, pH 7.4): 1.92 nmol
COc1ccc([C@@H](O)c2cc(-c3ncnc4cc(N5CCOCC5)ccc34)c(F)cc2Cl)nn1  tlag (healthy volunteers, plasma; oral, 100 mg, oral suspension, fasted, median): 0 h
NC1(C(=O)N[C@@H](CCO)c2ccc(Cl)cc2)CCN(c2nc[nH]c3nccc2-3)CC1  incidence of Dyspepsia (metastatic CRPC patients; dose not given, any grade, treatment-related, all doses, with: enzalutamide 160 mg daily): 13.3%
O=S(=O)(O)Oc1ccc(CCO)cc1  plasma concentration (human plasma; median): 127 nM
C[C@@H](N)C1CCN(S(=O)(=O)c2cccc3cnccc23)CC1  participants, with TEAEs, treatment-related (healthy volunteers; 250 mg, fasted): 66.7%
Cc1ccc([C@@H]2O[C@H](CO)[C@@H](O)[C@H](O)[C@H]2O)cc1Cc1ccc(-c2ccc(F)cc2)s1  urinary potassium excretion change (Japanese type 2 diabetes patients; 200 mg, day 6, 24 h urine collection; relative to: baseline): 1.97 mEq
CCn1cc(C)c2c([C@H](O)c3ccc(C(F)(F)F)nc3)n(C)nc2c1=O  CL (rat Sprague-Dawley male, plasma; intravenous, 1 mg/kg): 35.3 ± 2.11 mL/min/kg
CC(C)(C(=O)N1CCOc2c(C#N)cncc2C1)C(F)F  subjects with adverse event (item: contact dermatitis; human; oral, 15 mg twice daily, 14 days, multiple ascending dose): 25%
CN1CCC[C@H](CN2c3ccccc3Sc3ccccc32)C1.Cl  Tmax (Wistar rats, female, lymph node; oral, 16 mg/kg): 8 h
CNC(=O)c1ccc(-c2cnc3ncc(Cc4ccc5ncccc5c4)n3n2)cc1F  Malaise dose reduction/interruption (Japanese patients; oral, 400 mg, any grade): 1%
O=C(O)C1=CC(=C(c2ccc(O)c(C(=O)O)c2)c2ccc(O)c(C(=O)O)c2)C=CC1=O  serum IL-12p40 level (mouse B16-F10 tumour-bearing, serum; dose not given, monotherapy; relative to: vehicle): increased
CN1C(C(=O)Nc2ccccn2)=C(O)c2sc(Cl)cc2S1(=O)=O  necrotic cells (COS-7; 30 µM, 24 h, 0.1% DMSO, unit not given; relative to: vehicle control): 0.56 ± 0.19
CNc1ccc(-c2nc3ccc(O)cc3s2)cc1 [carbon-11 labelled]  SUV (ex vivo biodistribution; B6SJL mouse, normal, pancreas; intravenous, 30 min): 0.911 ± 0.217
Cc1c2oc3c(C)ccc(C(=O)N[C@@H]4C(=O)N[C@H](C(C)C)C(=O)N5CCC[C@H]5C(=O)N(C)CC(=O)N(C)[C@@H](C(C)C)C(=O)O[C@@H]4C)c3nc-2c(C(=O)N[C@@H]2C(=O)N[C@H](C(C)C)C(=O)N3CCC[C@H]3C(=O)N(C)CC(=O)N(C)[C@@H](C(C)C)C(=O)O[C@@H]2C)c(N)c1=O  median plasma concentration (LC-MS; children with cancer, plasma; dose not given, 6 h): 3.2 µg/L
CCc1cc(C(=O)NC)c2nccc(N3CCc4c(cc(Cn5ccnc5)cc4-c4cn(C)nc4C(F)(F)F)C3=O)c2c1  AUC extrapolated fraction (Sprague Dawley rat, male, plasma; oral, 50 mg/kg): 0%
CCn1cc(C(=O)O)c(=O)c2cc(F)c(N3CCNCC3)cc21  amount permeated (starch gel membrane permeability; Gram-negative envelope surrogate; 200 µM, 20 min, pH 7.4): 1.64 nmol
O=C(O)[C@H]1O[C@@H](Oc2c(-c3ccc(O)cc3)oc3cc(O)cc(O)c3c2=O)[C@H](O)[C@@H](O)[C@@H]1O  plasma concentration (human plasma; mean): 1240 nM
CCn1cc(C(=O)O)c(=O)c2ccc(C)nc21  amount permeated (starch gel membrane permeability; Gram-negative envelope surrogate; 200 µM, 90 min, pH 7.4): 5.71 nmol
Cc1cc(C)c(CNC(=O)c2cc(Cl)c3c(c2C)O[C@@](C)([C@H]2CC[C@H](N(C)C)CC2)O3)c(=O)[nH]1  febrile neutropenia grade ≥3 (human relapsed/refractory NHL; oral, 200 mg once daily, onset after cycle 1 day 1): 4.2%
CCO[C@H]1CCN(Cc2c(OC)cc(C)c3[nH]ccc23)[C@H](c2ccc(C(=O)O)cc2)C1  total Cmax (human moderate hepatic impairment, plasma; oral, 200 mg single dose, median): 3150 ng/mL
CCO[C@H]1CCN(Cc2c(OC)cc(C)c3[nH]ccc23)[C@H](c2ccc(C(=O)O)cc2)C1  incidence of GGT increase (PNH patients, active haemolysis; oral, 100 mg, 8 weeks, treatment): 0%
Cc1nc2ccc(OCc3ccc(C(F)(F)F)cc3)cc2[nH]1  tissue/plasma ratio (male Balb/c mice, heart; oral, 10 mg/kg, 4 h; relative to: tissue over plasma): 4.5 ± 0.6
C[C@@H]1CCO[C@H]2Cn3cc(C(=O)NCc4ccc(F)cc4F)c(=O)c(O)c3C(=O)N12  trough concentration (C24) (human paediatric patients, weight sample B to under sample C kg, plasma; oral, 20 mg film-coated tablet, 24 h, steady state, geometric mean, population PK post-hoc, N 2): 303 ng/mL
FC(F)(F)c1ccc(CNc2ccc(Cc3c[nH]c4ncc(Cl)cc34)cn2)cn1  adverse event incidence (item: Rash; patients with advanced solid tumours; oral, dose not given, grade 1 and 2, possibly related to drug): 15%
O=C(O)c1ccc(O)cc1  plasma concentration (human plasma; median, both sexes): 712 nM
CCN(CC)CCCC(C)Nc1ccnc2cc(Cl)ccc12 (centres unmarked)  metabolic activity (COS-7; WST-8; 100 µM, 24 h, 0.1% DMSO, unit not given; relative to: control): 0.49 ± 0.4
O=S(=O)(O)Oc1cc([C@H]2Oc3cc(O)cc(O)c3C[C@H]2O)ccc1O  plasma concentration (human plasma; median): 629 nM
CCOc1c([C@H](C)n2nc(C)c3c(N)ncnc32)cc(Cl)c(F)c1[C@@H]1CNC(=O)C1  observations with HR ≤100 bpm (ECG; previously treated B-cell malignancy patients; oral, 15 mg once daily, baseline below thresholds): 100%
Cc1cc(Nc2cc3ncccc3c(N[C@@H]3C[C@H]4CC[C@@H](C3)N4CCC#N)n2)n[nH]1  sneezing incidence (healthy human subjects; oral, 30 mg, 14 days, multiple ascending dose): 0%
COc1cc(C(=O)N2CCC3(CC2)CC(=O)c2c(cnn2C(C)C)C3)cc(-c2ccc(C(=O)O)cc2)n1  percentage change from baseline (item: direct LDL cholesterol; human, fasting serum; 1 mg every 12 h, day 13, adjusted geometric mean; relative to: baseline): -5.2%
Cc1cc(-c2nccc3c2ccn3CC(=O)Nc2ccc(-c3cnccn3)cn2)ccn1  subjects with nasal discomfort (human; 20 mg once daily, multiple ascending dose): 0%
O=C1CCC(N2Cc3cc(CO)c(F)cc3C2=O)C(=O)N1 (centres unmarked)  plasma concentration (cynomolgus monkey, male; oral, 0.3 mg/kg parent drug, 0.25 h): 0.3 ng/mL
CNCc1ccc(-c2[nH]c3cc(F)cc4c3c2CCNC4=O)cc1  abdominal distension incidence (patients; oral, 600 mg twice daily, grade 2): 0%
CCN1/C(=C/C(C)=O)Sc2ccc(F)cc21  mean blood pressure (cynomolgus monkey; oral, 100 mg/kg, 24 h post-dose): 86 ± 7 mmHg
O=C1C[C@@H](c2ccc(O[C@@H]3O[C@H](C(=O)O)[C@@H](O)[C@H](O)[C@H]3O)cc2)Oc2cc(O)cc(O)c21  plasma concentration (human plasma; median): 656 nM
CCc1c(-c2ccccc2)c(-c2ccccc2)nn1-c1ccccc1-c1cccc(OCC(=O)O)c1  concentration (Sprague-Dawley rat, fat; oral, 10 mg/kg, 8 h): 1020 ng/g and 1220 ng/g
O=C(Nc1nc2cccc(-c3ccc(CN4CCS(=O)(=O)CC4)cc3)n2n1)C1CC1  treatment-emergent adverse events (item: blood and lymphatic disorders; rheumatoid arthritis patients; oral, 300 mg once daily, 4 weeks, any relatedness): 0%
COc1ccc(CCC(=O)O)cc1OS(=O)(=O)O  plasma concentration (human plasma; mean): 381 nM
CC(=O)O[C@H]1C[C@@]2(C)[C@@H](C[C@@H](O)[C@H]3[C@@]4(C)CC[C@@H](O)[C@@H](C)[C@@H]4CC[C@@]32C)/C1=C(\CCC=C(C)C)C(=O)O  amount permeated (starch gel membrane permeability; Gram-negative envelope surrogate; 200 µM, 90 min, pH 7.4): 0.9 nmol
NC[C@@H]1O[C@H](O[C@H]2[C@@H](O)[C@H](O[C@@H]3[C@@H](O)[C@H](N)C[C@H](N)[C@H]3O[C@H]3O[C@H](CO)[C@@H](O)[C@H](O)[C@H]3N)O[C@@H]2CO)[C@H](N)[C@@H](O)[C@@H]1O  body weight (NSG mice; dose not given, day 6 of treatment): 24.2 g and 22.7 g and 23.1 g and 23 g and 20.4 g and 23.3 g and 21.6 g and 22.2 g
CC(C)(C)c1ccc(O)c(CN(Cc2cc(C(C)(C)C)ccc2O)C2CCC(NC(N)=O)CC2)c1 (centres unmarked)  elimination rate constant (C57BL/6 mouse, male, plasma; oral, 10 mg/kg): 6.94e-05 s⁻¹
O=C(COc1ccc(Cl)cc1)NC12CC(c3nnc([C@H]4C[C@@H](OC(F)(F)F)C4)o3)(C1)C2  drug-related TEAE participants (human both sexes; oral, 200 mg once daily, 14 days): 71.4%
COc1ccc([C@@H](O)c2cc(-c3ncnc4cc(N5CCOCC5)ccc34)c(F)cc2Cl)nn1  radiation skin injury TEAE (locally advanced rectal cancer; oral, 100 mg, with: capecitabine and radiotherapy): 50%
O=C(O)CCC(=O)O.[2H]C([2H])([2H])Oc1cc(C)c2[nH]ccc2c1CN1CC[C@@H](C2CC2)C[C@H]1c1ccc(C(=O)O)cc1  subjects with neutropenia (multiple ascending dose; healthy Chinese subjects; 125 mg twice daily): 0%
